# Published values collected from several papers.
# ± gives the spread as reported.
# uncharacterized protein: uncharacterized protein (Apis mellifera, UniProt A0A7M6W5G5)
# BCHE: Cholinesterase (BCHE, Equus caballus, UniProt P81908)
# Chain of UniProt P81908 (whole entry, looked up): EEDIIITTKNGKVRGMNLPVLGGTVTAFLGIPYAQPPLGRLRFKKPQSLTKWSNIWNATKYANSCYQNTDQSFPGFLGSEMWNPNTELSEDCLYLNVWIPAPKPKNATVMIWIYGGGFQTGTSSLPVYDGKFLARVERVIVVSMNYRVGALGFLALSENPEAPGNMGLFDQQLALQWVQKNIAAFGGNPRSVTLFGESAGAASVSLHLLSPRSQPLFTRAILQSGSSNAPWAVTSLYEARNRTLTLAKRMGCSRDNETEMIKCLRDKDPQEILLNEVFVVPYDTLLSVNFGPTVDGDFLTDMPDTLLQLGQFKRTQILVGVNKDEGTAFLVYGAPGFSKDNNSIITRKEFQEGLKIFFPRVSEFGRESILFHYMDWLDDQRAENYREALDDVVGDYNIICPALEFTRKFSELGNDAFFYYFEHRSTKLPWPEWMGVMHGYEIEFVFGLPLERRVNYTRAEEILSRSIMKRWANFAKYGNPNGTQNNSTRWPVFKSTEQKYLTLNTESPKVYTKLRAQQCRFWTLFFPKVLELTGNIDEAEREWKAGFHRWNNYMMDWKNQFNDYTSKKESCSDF
# CTSL: Procathepsin L (CTSL, Homo sapiens, UniProt P07711)
# Chain of UniProt P07711 (whole entry, looked up): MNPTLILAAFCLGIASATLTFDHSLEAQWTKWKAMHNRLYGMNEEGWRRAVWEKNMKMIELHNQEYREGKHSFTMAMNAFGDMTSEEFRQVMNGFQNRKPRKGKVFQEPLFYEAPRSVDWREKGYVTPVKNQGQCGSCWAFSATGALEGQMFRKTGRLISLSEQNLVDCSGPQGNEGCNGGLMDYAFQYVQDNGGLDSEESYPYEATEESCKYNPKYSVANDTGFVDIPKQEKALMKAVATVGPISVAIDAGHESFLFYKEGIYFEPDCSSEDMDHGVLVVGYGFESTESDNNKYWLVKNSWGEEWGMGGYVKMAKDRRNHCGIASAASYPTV
# CA2: Carbonic anhydrase 2 (CA2, Homo sapiens, UniProt P00918)
# Mitogen-activated protein kinase 14: Mitogen-activated protein kinase 14 (Rattus norvegicus, UniProt P70618)
# Chain of UniProt P70618 (whole entry, looked up): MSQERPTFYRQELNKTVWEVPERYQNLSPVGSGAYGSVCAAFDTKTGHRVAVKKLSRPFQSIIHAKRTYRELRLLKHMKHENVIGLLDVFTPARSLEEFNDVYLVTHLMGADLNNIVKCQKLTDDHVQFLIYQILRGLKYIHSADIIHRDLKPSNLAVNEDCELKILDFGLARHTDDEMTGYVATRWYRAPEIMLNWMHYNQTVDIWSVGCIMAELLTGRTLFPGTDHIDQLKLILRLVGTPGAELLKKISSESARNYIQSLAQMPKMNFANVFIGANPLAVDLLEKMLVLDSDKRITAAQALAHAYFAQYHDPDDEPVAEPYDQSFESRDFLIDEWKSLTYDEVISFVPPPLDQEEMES
# Chain of UniProt Q14790 (whole entry, looked up): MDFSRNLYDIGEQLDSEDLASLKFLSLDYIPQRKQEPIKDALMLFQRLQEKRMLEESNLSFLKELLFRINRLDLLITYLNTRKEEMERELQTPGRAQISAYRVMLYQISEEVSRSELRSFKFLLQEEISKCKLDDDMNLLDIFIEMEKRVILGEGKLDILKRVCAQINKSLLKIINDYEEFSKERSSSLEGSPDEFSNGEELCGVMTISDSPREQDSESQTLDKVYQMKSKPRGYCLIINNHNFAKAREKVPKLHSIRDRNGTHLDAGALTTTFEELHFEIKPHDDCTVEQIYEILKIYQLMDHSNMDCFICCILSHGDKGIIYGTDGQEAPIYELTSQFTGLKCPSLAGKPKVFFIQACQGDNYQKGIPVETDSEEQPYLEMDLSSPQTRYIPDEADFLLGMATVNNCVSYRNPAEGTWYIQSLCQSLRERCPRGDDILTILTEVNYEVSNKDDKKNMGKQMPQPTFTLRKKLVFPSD
# Chain of UniProt P10613 (whole entry, looked up): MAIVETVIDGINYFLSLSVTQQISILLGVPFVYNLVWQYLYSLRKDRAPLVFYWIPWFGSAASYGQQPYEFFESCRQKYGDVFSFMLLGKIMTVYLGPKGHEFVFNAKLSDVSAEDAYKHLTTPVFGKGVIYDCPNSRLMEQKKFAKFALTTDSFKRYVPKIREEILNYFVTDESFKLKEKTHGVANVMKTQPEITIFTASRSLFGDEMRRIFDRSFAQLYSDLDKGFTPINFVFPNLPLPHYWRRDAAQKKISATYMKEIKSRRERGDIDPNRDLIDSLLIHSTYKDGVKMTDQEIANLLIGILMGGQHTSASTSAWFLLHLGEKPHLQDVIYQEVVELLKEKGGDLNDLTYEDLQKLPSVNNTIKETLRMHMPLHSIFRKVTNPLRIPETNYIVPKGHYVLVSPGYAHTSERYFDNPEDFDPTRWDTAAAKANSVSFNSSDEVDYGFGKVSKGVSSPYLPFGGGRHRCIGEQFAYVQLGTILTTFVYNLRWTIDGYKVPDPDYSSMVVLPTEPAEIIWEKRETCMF
# Chain of UniProt P28223 (whole entry, looked up): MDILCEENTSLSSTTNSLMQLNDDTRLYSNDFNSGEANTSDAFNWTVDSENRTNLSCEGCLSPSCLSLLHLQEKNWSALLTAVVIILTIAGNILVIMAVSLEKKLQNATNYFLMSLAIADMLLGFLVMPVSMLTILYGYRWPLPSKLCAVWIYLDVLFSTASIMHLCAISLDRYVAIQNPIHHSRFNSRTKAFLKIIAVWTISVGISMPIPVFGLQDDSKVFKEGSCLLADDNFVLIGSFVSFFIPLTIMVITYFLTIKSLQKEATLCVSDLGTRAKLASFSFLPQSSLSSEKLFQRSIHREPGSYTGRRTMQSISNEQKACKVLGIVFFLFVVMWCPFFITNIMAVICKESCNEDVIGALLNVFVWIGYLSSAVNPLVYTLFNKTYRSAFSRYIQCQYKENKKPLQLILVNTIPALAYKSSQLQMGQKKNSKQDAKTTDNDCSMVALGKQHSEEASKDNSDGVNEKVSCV
# Chain of UniProt Q13547 (whole entry, looked up): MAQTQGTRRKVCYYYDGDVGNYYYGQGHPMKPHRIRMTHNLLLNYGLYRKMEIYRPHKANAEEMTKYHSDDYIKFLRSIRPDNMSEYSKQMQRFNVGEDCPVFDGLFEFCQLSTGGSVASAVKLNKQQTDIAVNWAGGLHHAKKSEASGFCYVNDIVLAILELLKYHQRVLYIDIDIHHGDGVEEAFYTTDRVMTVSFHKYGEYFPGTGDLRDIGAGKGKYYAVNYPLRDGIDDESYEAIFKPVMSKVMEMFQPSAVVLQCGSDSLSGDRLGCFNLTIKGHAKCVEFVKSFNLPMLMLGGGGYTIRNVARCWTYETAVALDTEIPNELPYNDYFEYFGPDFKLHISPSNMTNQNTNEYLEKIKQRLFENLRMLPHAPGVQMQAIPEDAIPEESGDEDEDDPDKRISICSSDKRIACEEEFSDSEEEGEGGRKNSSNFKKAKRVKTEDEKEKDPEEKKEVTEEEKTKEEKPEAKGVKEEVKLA
# Chain of UniProt O95931 (whole entry, looked up): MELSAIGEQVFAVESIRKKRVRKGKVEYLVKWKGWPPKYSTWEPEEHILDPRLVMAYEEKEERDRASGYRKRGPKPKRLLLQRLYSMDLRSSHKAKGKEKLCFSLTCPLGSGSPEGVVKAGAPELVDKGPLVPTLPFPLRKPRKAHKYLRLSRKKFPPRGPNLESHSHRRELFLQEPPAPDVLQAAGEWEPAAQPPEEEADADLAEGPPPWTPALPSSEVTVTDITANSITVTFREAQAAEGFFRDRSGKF
# Chain of UniProt P00519 (whole entry, looked up): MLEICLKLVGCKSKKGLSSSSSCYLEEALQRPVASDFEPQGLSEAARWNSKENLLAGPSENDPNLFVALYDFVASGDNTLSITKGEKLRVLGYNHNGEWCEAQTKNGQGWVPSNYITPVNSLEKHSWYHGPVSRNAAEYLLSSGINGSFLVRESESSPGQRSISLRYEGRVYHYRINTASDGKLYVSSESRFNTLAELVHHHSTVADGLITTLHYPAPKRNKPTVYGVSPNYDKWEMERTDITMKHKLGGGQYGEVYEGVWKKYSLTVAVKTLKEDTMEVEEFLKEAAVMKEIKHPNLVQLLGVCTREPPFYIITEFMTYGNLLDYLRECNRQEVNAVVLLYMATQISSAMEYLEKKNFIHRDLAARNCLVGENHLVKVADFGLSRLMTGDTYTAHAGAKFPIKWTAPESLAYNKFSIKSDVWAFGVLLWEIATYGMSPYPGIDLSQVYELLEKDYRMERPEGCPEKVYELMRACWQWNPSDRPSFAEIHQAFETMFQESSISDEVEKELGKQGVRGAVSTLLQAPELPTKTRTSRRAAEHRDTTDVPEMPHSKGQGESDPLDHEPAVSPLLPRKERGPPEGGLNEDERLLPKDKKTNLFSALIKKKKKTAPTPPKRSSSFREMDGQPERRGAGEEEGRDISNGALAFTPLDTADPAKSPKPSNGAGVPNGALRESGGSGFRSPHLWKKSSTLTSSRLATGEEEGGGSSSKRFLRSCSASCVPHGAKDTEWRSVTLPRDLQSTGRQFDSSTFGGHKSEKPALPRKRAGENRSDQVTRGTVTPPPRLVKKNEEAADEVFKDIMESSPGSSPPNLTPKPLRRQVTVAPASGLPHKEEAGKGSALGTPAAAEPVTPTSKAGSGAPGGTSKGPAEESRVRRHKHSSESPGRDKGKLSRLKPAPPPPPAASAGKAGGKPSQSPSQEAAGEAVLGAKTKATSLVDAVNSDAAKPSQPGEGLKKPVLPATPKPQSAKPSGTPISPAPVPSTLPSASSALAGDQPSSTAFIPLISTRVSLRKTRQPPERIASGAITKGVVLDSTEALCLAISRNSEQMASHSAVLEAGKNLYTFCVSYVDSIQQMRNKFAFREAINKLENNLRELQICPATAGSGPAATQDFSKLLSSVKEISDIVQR
# Chain of UniProt P25084 (whole entry, looked up): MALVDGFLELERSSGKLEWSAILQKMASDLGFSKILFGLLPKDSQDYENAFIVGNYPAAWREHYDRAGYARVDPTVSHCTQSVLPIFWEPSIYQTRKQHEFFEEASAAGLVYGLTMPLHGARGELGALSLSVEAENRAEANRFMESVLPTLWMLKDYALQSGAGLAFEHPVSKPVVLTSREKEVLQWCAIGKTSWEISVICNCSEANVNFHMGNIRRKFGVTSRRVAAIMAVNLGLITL
Compound,target,test,system,setting,IC50 [µM]
CC(C)NCCN1C(=O)CSC1c1ccc(F)cc1 (centres unmarked),uncharacterized protein,"enzyme activity, inhibitor, Ellman",,added: 1 mM acetylthiocholine,> 1000
O=C(CCc1ccc(Br)cc1)N[C@H]1CCOC1=O,"lasR (Pseudomonas aeruginosa, UniProt P25084)","reporter gene, antagonist",PAO-JP2,added: OdDHL 100 nM,7.6
Cc1ccc(-c2csc(NN=C(C=Cc3ccc(Cl)cc3)C(=O)O)n2)cc1,BCHE,"enzyme activity, inhibitor",,,4.07
O=C(COc1ccc(Cl)cc1Cl)Nc1ccc(CN2CCCCC2)cc1,uncharacterized protein,"enzyme activity, inhibitor, Ellman",,"pH 7.4, 30 °C, added: 1 mM acetylthiocholine",6.2
CC[C@H](C)[C@H](N)C(=O)N[C@@H](CCCNC(=N)N)C(=O)N[C@@H](CCC(N)=O)C(=O)N[C@@H](CCC(=O)O)C(=O)N[C@@H](CCC(=O)O)C(=O)N[C@H](C(=O)N[C@@H](CCC(N)=O)C(=O)N[C@@H](CCC(=O)O)C(=O)N[C@@H](CC(C)C)C(=O)O)C(C)C,"HLA class I histocompatibility antigen, B alpha chain, allele B*18:01 (Homo sapiens, UniProt P01889)","peptide-MHC binding, radioligand competition binding",,,> 70
CCN(CC)S(=O)(=O)c1ccc2nnn(OCc3ccccc3)c2c1,CTSL,"enzyme activity, inhibitor, FRET",,,> 100
Nc1ccn(C2OC(COP(=O)(O)OP(=O)(O)OP(=O)(O)O)C(O)C2(F)F)c(=O)n1 (centres unmarked),"pyrG (Escherichia coli, UniProt P0A7E5)","glutamine-dependent CTP formation, inhibitor",,added: 2 mM MgCl2,11.5 ± 0.5
CCCCCCCCCCCCCCN(O)C(=O)CCCCC[C@@H]1NC(=O)[C@H]2CCCN2C(=O)[C@H](Cc2ccccc2)NC(=O)[C@H](Cc2ccccc2)NC1=O,"HDAC1 (Homo sapiens, UniProt Q13547)","enzyme activity, inhibitor, fluorescence",,,0.078
O=S(=O)(N/N=C/c1ccc(OS(=O)(=O)c2cc(Cl)ccc2Cl)cc1)c1cc(Cl)ccc1Cl,CA2,"enzyme activity, inhibitor, absorbance",,,0.14
O=C(O)CCn1c(=O)oc2cc(Cl)c(Cl)cc21,"HTR2A (Homo sapiens, UniProt P28223)",antagonist,,median value,> 25.1
CC[C@H](C)[C@H](NC(=O)[C@H](C)NC(=O)[C@H](CCC(=O)O)NC(=O)[C@H](CC(C)C)NC(=O)[C@H](CO)NC(=O)[C@H](CCCNC(=N)N)NC(=O)[C@H](CCCNC(=N)N)NC(=O)[C@H](CC(C)C)NC(=O)[C@H](CC(C)C)NC(=O)[C@@H](NC(=O)[C@H](C)NC(=O)[C@@H](N)Cc1ccc(O)cc1)[C@@H](C)CC)C(=O)N[C@@H](CCC(=O)O)C(=O)N[C@@H](CC(C)C)C(=O)NCC(=O)N[C@@H](CC(C)C)C(=O)O,Mitogen-activated protein kinase 14,"enzyme activity, inhibitor, fluorescence",,pH 7.4,71.1
CN(C)C(=O)c1cncc(-c2cnc3[nH]cc(-c4cc(OS(=O)(=O)F)ccc4C(F)(F)F)c3c2)c1,"ABL1 (Homo sapiens, UniProt P00519)","kinase activity, inhibitor, HTRF",,"1 h preincubation, added: ATP 20 µM",> 1
COC(=O)c1ccc(COC(CN2CCN(C(=O)Nc3ccccc3C)CC2)c2ccc(Cl)cc2)cc1 (centres unmarked),"ERG11 (Candida albicans, UniProt P10613)","enzyme activity, inhibitor, mass spectrometry",,,0.824
CC(C)C[C@H](NC(=O)[C@H](CC(C)C)NC(=O)[C@H](CC(C)C)NC(=O)[C@H](CCCNC(=N)N)NC(=O)[C@H](CCCCN)NC(=O)[C@@H]1CCCN1C(=O)[C@H](CCCCN)NC(=O)[C@@H]1CCCN1C(=O)CNC(=O)[C@H](CCCNC(=N)N)NC(=O)[C@H](CCCCN)NC(=O)[C@H](CCCNC(=N)N)NC(=O)[C@H](C)NC(=O)[C@@H](N)Cc1ccc(O)cc1)C(=O)N[C@@H](CCC(N)=O)C(=O)N[C@@H](CCCNC(=N)N)C(=O)O,Mitogen-activated protein kinase 14,"enzyme activity, inhibitor, fluorescence",,pH 7.4,3.64
CCc1nn(C)c2nc(-c3ccc(C(=O)O)cc3)nc(NCc3ccccc3)c12,"PDE6A/PDE6B (Bos taurus, UniProt P11541+P23439)",inhibitor,bovine retina,,0.07
CN(C)S(=O)(=O)c1ccc2nnn(OCc3cccc4cccnc34)c2c1,CTSL,"enzyme activity, inhibitor, FRET",,,> 100
CC[C@H](C)[C@H](NC(=O)[C@H](C)NC(=O)[C@@H](N)Cc1ccc(O)cc1)C(=O)N[C@@H](CCCNC(=N)N)C(=O)N[C@@H](C)C(=O)N[C@@H](CCCNC(=N)N)C(=O)N[C@@H](CCCNC(=N)N)C(=O)NCC(=O)N[C@@H](CC(C)C)C(=O)N[C@@H](C)C(=O)N[C@@H](CCCNC(=N)N)C(=O)N[C@@H](CC(C)C)C(=O)N[C@@H](C)C(=O)N[C@H](C(=O)N[C@@H](CO)C(=O)N[C@@H](CC(=O)O)C(=O)O)C(C)C,Mitogen-activated protein kinase 14,"enzyme activity, inhibitor, fluorescence",,pH 7.4,64.9
CNC(=O)C[C@H](Cc1ccc(F)cc1)NC(=O)[C@@H](Cc1ccc(Cl)cc1Cl)NC(=O)[C@H](N)Cc1ccccc1C#N,"Caspase-8 (CASP8, Homo sapiens, UniProt Q14790)","enzyme activity, inhibitor",,,> 10
CCC(C)C1OC2(CCC1C)CC1CC(C/C=C(\C)C(OC3CC(OC)C(OC4CC(OC)C(O)C(C)O4)C(C)O3)C(C)/C=C/C=C3\COC4C(O)C(C)=CC(C(=O)O1)C34O)O2 (centres unmarked),"Anoctamin-6 (ANO6, Homo sapiens, UniProt Q4KMQ2)","anion channel activity, inhibitor, YFP fluorescence quenching",FRT cells expressing ANO6,,0.99 ± 0.36
O=S(=O)(N/N=C/c1ccc(OS(=O)(=O)c2ccc(Br)cc2)cc1)c1cc(Cl)ccc1Cl,CA2,"enzyme activity, inhibitor, absorbance",,,0.124
CC[C@H](C)[C@H](NC(=O)[C@H](CC(C)C)NC(=O)[C@H](C)NC(=O)[C@@H]1CCCN1C(=O)[C@H](C)NC(=O)[C@H](CCCNC(=N)N)NC(=O)[C@@H]1CCCN1C(=O)[C@H](CCCNC(=N)N)NC(=O)[C@H](CCC(N)=O)NC(=O)[C@H](CCCCN)NC(=O)[C@@H]1CCCN1C(=O)[C@H](C)NC(=O)[C@@H](N)Cc1ccc(O)cc1)C(=O)N[C@H](C(=O)N1CCC[C@H]1C(=O)N[C@H](C(=O)O)[C@@H](C)O)[C@@H](C)CC,Mitogen-activated protein kinase 14,"enzyme activity, inhibitor, fluorescence",,pH 7.4,54
CC(C)[C@H](N)C(=O)N[C@@H](CC(N)=O)C(=O)N[C@@H](Cc1ccc(O)cc1)C(=O)N[C@@H](CC(=O)O)C(=O)O,"ACE (Homo sapiens, UniProt P12821)","enzyme activity, inhibitor",,,~3090
CC(C)C[C@H](NC(=O)[C@H](CCCCN)NC(=O)[C@H](CC(C)C)NC(=O)[C@H](CCCCN)NC(=O)[C@H](CCCNC(=N)N)NC(=O)[C@@H]1CCCN1C(=O)[C@H](CCCNC(=N)N)NC(=O)CNC(=O)[C@H](CCCNC(=N)N)NC(=O)[C@H](CCCCN)NC(=O)CNC(=O)[C@@H]1CCCN1C(=O)[C@H](C)NC(=O)[C@@H](N)Cc1ccc(O)cc1)C(=O)N[C@@H](CS)C(=O)N[C@@H](CCCCN)C(=O)O,Mitogen-activated protein kinase 14,"enzyme activity, inhibitor, fluorescence",,pH 7.4,0.06
CCC1c2ccsc2CCN1C(=O)c1nnn(C2CCNCC2)c1C (racemic),CTSL,"enzyme activity, inhibitor, FRET",,,> 100
CC(C)C[C@H](NC(=O)[C@H](CCC(=O)O)NC(=O)[C@H](CO)NC(=O)[C@@H](NC(=O)[C@H](C)NC(=O)[C@H](Cc1ccc(O)cc1)NC(=O)[C@@H]1CCCN1C(=O)[C@H](CCC(N)=O)NC(=O)[C@H](CCCNC(=N)N)NC(=O)[C@@H](N)CC(N)=O)C(C)C)C(=O)O,"MHC-I ELA-A9, horse","binding, competitive radioligand binding",,pH 7,0.003
CN1CCCCC1C(=O)NC(Cc1ccc(-c2ccccc2)cc1)B(O)O (centres unmarked),"20S proteasome, beta1 subunit (Plasmodium falciparum, UniProt Q8I0U7+Q8I6T3)","β1 activity, inhibitor",,added: Ac-nLPnLD-AMC,> 10
CCCN(CCCC[C@H](NC(=O)[C@H](CCCN1CCOCC1)NC(=O)[C@@H](NC(=O)[C@H](Cc1ccccc1)NC(=O)c1ccc(C(C)(C)C)cc1)C(C)C)C(=O)N[C@@H](CO)C(N)=O)C1CC2CCC1C2 (some centres unmarked),"Chromobox protein homolog 7 (Homo sapiens, UniProt O95931)","ligand displacement, TR-FRET",,,4.7
COc1ccc(-c2csc(NN=C(C=Cc3ccc(Cl)cc3)C(=O)O)n2)cc1,BCHE,"enzyme activity, inhibitor",,,8.02
COc1ccccc1NC(=S)NCCN(C)C,uncharacterized protein,"enzyme activity, inhibitor, Ellman",,"pH 7.4, 30 °C, added: 1 mM acetylthiocholine",13
O=C(c1cc(Cc2n[nH]c(=O)c3ccccc23)ccc1F)N1CC(CNC2CC2)C1,"PARP2 (Homo sapiens, UniProt Q9UGN5)","enzyme activity, inhibitor",,,0.003
CC[C@H](C)[C@H](NC(=O)[C@H](Cc1ccccc1)NC(=O)[C@@H](NC(=O)[C@H](CCCNC(=N)N)NC(=O)[C@H](CC(C)C)NC(=O)[C@H](CCCCN)NC(=O)[C@H](CCCNC(=N)N)NC(=O)[C@H](CCCCN)NC(=O)[C@H](CCC(N)=O)NC(=O)[C@H](CCCCN)NC(=O)[C@@H](NC(=O)[C@@H]1CCCN1C(=O)[C@H](C)NC(=O)[C@@H](N)Cc1ccc(O)cc1)[C@@H](C)CC)[C@@H](C)CC)C(=O)N[C@@H](CO)C(=O)N[C@@H](CC(N)=O)C(=O)O,Mitogen-activated protein kinase 14,"enzyme activity, inhibitor, fluorescence",,pH 7.4,2.43
CCCCCCCCCCCCCCCCCC(=O)NC[C@H]1CC[C@H](C(=O)N[C@@H](CCC(=O)NCCCOCCOCCOCCCNC(=O)COCC(=O)N[C@@H](Cc2ccc(O)cc2)C(=O)NC(C)(Cc2ccccc2)C(=O)N[C@@H](CC(C)C)C(=O)N[C@@H](CCCC)C(=O)N[C@@H](CCCNC(=N)N)C(=O)N2CCC[C@H]2C(=O)N[C@@H](CCCNC(=N)NC)C(=O)N[C@@H](CC(N)=O)C(N)=O)C(=O)O)CC1 (some centres unmarked),"NPBWR1 (Homo sapiens, UniProt P48145)","β-arrestin recruitment, antagonist",,added: 10 nM neuropeptide W-23,2.6

# Excerpt of the above:
Compound,target,test,system,setting,IC50 [µM]
O=C(COc1ccc(Cl)cc1Cl)Nc1ccc(CN2CCCCC2)cc1,uncharacterized protein,"enzyme activity, inhibitor, Ellman",,"pH 7.4, 30 °C, added: 1 mM acetylthiocholine",6.2
COc1ccccc1NC(=S)NCCN(C)C,uncharacterized protein,"enzyme activity, inhibitor, Ellman",,"pH 7.4, 30 °C, added: 1 mM acetylthiocholine",13
O=C(c1cc(Cc2n[nH]c(=O)c3ccccc23)ccc1F)N1CC(CNC2CC2)C1,"PARP2 (Homo sapiens, UniProt Q9UGN5)","enzyme activity, inhibitor",,,0.003
CCc1nn(C)c2nc(-c3ccc(C(=O)O)cc3)nc(NCc3ccccc3)c12,"PDE6A/PDE6B (Bos taurus, UniProt P11541+P23439)",inhibitor,bovine retina,,0.07
O=S(=O)(N/N=C/c1ccc(OS(=O)(=O)c2cc(Cl)ccc2Cl)cc1)c1cc(Cl)ccc1Cl,CA2,"enzyme activity, inhibitor, absorbance",,,0.14
